Measurements collected from several papers.
Protocols differ between the studies behind these lines. Several values in a cell are separate wells, animals, samples, runs or records. ± gives the spread as reported.
lasR: Transcriptional activator protein LasR (lasR, Pseudomonas aeruginosa, UniProt P25084)
sdiA: Regulatory protein SdiA (sdiA, Escherichia coli, UniProt P07026)
Chain of UniProt P07026 (whole entry, looked up): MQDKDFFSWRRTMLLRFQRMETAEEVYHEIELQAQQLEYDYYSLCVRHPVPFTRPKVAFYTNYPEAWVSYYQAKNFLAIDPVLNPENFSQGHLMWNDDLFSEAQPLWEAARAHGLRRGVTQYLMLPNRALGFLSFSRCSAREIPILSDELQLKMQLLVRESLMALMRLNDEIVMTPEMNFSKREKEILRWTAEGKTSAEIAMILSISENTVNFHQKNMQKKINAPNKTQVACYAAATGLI
Oprm1: Mu-type opioid receptor (Oprm1, Rattus norvegicus, UniProt P33535)
Chain of UniProt P33535 (whole entry, looked up): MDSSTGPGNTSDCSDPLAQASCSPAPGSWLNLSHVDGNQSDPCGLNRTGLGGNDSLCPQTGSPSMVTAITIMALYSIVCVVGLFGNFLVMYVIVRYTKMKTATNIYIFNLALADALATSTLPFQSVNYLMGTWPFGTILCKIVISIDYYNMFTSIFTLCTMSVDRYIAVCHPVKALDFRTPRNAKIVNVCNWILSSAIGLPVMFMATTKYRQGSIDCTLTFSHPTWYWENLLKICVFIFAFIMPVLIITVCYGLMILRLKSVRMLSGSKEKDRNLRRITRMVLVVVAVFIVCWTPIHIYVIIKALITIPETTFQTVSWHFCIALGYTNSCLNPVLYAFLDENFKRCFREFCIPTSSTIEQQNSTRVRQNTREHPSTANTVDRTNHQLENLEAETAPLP
Uncharacterized hydrolase SAUSA300_2518: Uncharacterized hydrolase SAUSA300_2518 (Staphylococcus aureus, UniProt Q2FDS6)
Chain of UniProt Q91V12 (whole entry, looked up): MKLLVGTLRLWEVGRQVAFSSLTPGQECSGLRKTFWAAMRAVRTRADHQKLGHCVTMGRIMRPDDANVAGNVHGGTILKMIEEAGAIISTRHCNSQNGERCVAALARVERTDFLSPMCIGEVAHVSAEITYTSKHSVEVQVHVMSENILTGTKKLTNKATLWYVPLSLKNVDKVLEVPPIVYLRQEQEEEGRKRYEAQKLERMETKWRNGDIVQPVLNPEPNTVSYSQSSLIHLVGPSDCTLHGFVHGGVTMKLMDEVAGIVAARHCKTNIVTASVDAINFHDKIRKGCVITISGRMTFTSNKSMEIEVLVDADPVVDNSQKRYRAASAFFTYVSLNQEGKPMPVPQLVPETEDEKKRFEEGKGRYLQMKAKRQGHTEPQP
Chain of UniProt Q9H2X3 (whole entry, looked up): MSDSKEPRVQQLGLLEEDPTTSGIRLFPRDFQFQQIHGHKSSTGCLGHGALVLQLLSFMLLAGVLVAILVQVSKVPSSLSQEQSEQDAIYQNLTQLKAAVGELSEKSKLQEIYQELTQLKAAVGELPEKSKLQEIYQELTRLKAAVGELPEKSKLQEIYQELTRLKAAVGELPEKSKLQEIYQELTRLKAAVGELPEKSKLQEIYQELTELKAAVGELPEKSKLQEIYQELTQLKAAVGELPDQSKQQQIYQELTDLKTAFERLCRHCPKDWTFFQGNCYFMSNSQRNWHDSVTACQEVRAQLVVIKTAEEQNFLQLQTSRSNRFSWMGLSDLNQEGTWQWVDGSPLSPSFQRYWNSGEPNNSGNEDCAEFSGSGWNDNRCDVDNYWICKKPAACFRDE
Chain of UniProt Q9ET22 (whole entry, looked up): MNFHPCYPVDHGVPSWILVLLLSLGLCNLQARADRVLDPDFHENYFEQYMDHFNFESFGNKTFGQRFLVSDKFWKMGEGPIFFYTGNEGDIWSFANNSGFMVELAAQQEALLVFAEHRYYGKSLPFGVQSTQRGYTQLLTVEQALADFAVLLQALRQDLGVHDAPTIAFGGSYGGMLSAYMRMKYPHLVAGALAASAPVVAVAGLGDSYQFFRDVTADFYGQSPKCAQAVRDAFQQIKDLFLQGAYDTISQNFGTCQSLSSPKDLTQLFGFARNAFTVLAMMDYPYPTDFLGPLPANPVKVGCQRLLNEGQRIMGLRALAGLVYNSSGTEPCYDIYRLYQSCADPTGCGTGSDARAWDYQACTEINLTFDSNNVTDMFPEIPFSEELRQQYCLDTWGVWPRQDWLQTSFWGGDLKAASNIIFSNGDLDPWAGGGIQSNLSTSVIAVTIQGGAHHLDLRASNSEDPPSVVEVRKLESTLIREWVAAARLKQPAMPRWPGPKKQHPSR
Chain of UniProt Q9UH17 (whole entry, looked up): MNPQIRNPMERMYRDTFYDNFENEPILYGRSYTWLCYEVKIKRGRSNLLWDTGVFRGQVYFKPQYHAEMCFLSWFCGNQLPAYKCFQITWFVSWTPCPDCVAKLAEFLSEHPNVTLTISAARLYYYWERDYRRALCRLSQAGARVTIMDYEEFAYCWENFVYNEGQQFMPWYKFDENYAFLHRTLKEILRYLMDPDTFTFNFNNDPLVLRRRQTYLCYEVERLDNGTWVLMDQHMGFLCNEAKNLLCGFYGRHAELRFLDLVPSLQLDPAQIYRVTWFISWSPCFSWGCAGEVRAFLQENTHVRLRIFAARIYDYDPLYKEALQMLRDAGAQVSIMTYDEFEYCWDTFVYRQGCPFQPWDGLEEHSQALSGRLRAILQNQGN
Chain of UniProt Q14145 (whole entry, looked up): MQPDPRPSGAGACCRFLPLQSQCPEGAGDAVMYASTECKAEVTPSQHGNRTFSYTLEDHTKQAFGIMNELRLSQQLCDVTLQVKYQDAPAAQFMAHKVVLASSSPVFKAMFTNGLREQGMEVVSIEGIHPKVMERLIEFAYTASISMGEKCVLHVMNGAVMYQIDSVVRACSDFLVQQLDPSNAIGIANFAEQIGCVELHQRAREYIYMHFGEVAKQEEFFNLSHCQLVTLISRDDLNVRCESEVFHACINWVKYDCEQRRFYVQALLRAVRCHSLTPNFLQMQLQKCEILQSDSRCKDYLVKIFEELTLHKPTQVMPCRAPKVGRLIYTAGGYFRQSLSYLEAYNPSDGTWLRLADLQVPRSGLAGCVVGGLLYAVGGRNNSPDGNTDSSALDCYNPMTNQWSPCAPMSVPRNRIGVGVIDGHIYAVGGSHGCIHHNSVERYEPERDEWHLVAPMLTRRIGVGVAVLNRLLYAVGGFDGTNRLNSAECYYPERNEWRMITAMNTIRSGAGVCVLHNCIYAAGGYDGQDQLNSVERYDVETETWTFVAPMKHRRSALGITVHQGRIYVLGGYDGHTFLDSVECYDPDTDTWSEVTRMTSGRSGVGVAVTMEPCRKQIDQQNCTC
Chain of UniProt Q9Y2J8 (whole entry, looked up): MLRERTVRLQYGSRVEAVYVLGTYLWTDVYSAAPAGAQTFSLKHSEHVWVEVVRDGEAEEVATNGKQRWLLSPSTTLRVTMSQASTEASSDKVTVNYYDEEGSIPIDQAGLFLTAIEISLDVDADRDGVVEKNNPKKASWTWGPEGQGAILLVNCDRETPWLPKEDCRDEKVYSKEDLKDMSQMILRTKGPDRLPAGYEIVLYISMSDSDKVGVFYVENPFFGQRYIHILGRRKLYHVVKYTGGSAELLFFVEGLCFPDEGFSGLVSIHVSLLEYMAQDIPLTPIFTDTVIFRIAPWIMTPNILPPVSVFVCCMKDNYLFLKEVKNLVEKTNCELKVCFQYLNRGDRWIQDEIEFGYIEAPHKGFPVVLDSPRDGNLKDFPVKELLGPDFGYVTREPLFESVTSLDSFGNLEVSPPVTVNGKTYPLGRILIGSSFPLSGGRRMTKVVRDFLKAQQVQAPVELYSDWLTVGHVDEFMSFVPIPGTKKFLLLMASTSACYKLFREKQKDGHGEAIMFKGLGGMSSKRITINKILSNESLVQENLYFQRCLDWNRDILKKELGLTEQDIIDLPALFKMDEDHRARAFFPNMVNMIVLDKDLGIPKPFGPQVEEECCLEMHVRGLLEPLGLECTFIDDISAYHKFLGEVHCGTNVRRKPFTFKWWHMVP
Chain of UniProt P14616 (whole entry, looked up): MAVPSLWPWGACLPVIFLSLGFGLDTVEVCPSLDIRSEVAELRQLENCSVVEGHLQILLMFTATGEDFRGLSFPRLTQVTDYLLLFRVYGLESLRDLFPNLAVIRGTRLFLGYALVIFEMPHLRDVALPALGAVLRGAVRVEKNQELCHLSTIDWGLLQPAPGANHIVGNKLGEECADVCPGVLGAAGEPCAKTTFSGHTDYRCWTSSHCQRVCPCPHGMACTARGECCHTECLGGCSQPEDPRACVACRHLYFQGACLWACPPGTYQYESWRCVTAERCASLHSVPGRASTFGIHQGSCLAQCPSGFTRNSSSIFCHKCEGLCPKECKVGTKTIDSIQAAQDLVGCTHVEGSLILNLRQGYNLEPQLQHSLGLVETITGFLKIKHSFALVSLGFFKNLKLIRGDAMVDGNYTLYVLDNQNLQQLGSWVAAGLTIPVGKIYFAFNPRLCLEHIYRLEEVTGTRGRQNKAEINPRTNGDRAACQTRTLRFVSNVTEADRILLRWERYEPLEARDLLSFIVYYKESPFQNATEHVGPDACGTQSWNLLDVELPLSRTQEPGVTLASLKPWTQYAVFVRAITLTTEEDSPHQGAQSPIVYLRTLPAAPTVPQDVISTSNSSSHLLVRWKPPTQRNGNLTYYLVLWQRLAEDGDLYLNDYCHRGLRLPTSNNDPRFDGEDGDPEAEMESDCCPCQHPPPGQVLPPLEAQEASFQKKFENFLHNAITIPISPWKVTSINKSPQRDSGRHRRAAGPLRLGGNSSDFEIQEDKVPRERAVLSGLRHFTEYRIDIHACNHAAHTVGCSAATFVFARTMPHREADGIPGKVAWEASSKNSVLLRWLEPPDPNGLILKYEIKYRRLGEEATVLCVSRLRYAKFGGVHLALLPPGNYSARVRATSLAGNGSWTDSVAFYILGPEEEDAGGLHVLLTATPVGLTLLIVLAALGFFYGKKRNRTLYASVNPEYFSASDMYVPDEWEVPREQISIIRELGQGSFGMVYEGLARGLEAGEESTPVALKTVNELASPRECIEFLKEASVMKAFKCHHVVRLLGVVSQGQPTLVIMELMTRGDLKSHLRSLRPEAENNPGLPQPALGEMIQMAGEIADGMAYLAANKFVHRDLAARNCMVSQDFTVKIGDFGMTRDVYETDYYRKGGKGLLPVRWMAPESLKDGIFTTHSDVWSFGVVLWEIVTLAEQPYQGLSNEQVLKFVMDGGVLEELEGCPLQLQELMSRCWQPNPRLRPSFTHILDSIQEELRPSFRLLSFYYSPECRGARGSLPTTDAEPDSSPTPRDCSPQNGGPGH

The remaining binding of `CCOC(=O)[C@@H]1Cc2c(cc([N+](=O)[O-])cc2[N+](=O)[O-])[C@H](O)[C@]12C(=O)Nc1ccc(Br)cc12` is reported as 83% (Aurora kinase B (AURKB, Homo sapiens, UniProt Q96GD4); binding, competition with immobilised ligand; 0.1 µM).
`CC(C)[C@@H]1NC(=O)[C@H](CC(N)=O)NC(=O)CNC(=O)[C@H](CC(N)=O)NC(=O)[C@H](C)NC(=O)[C@H](CC(=O)O)NC(=O)[C@H]([C@@H](C)O)NC(=O)[C@H](CCC(=O)O)NC(=O)CNC(=O)[C@H]([C@@H](C)O)NC(=O)[C@H](CCC(=O)O)NC(=O)[C@H](CCC(=O)O)NC(=O)[C@H](CC(=O)O)NC1=O` has a fluorescence polarization of 0.083 a.u. and 0.192 a.u. (KEAP1 (Homo sapiens, UniProt Q14145); Keap1-Nrf2 binding, inhibitor, competitive FP; 1.562 µM, 30 min, together with: Nrf2 peptide probe; lower = stronger inhibition).
`C#CCCCCOc1ccc2c(c1)CCCN2C(=O)CCl` has a reactivity ratio of 1.53 (CAAX prenyl protease 2 (Homo sapiens, UniProt Q9Y256); mass spectrometry profiling, measured: RCE1; H460 cell lysate; 100 µM over 10 µM, UniProt Q9Y256; baseline: high over low concentration).
`O=C(CCc1ccc(Br)cc1)N[C@H]1CCOC1=O` gave an agonist activity of 25% (lasR; reporter gene, agonist; Escherichia coli JLD271; 10 µM, pSC11 and pJN105L plasmids; baseline: OdDHL at same concentration).
`O=C1NC(=O)c2c1c1cc(F)c[n+]3c1c1c2c2cc(O)ccc2[n]1[Ru-4]312([N]=C=S)[S+]3CC[S+]1CC[S+]2CC3` (stereo not shown) has a remaining activity of 29% (INSRR (Homo sapiens, UniProt P14616); enzyme activity; 100 nM, human enzyme, together with: 10 µM ATP; baseline: untreated).
The kcat of `N[C@H](C(=O)N1CCCC1)C1CCN(c2nccc3c(-c4ncc(Cl)cc4Cl)cccc23)CC1` is reported as 0.84 s⁻¹ and 0.766 s⁻¹ (PADI2 (Homo sapiens, UniProt Q9Y2J8); enzyme activity; 3.84 µM, high-affinity site, together with: Ca2+ 1.5 mM).
`O=C(Cc1ccc(F)c(C(F)(F)F)c1)N[C@H]1CCOC1=O` gave an Emax of 97.6% (sdiA).
`CC[C@H](C)[C@H](NC(=O)[C@@H](NC(=O)c1cccc(Cl)c1Cl)C(C)(C)C)C(=O)N[C@H](C(=O)N[C@H](C(=O)N[C@H](C(=O)N[C@@H](CCC(N)=O)C(=O)N[C@@H](Cc1c[nH]cn1)C(=O)N[C@H](CC(C)C)C(=O)N[C@@H](CO)C(=O)NCCOCCOCC(=O)N[C@@H](CCCCNC(=O)CC[C@@H]1NC(=O)[C@@H](CCCNC(=N)N)NC(=O)[C@H](CCCNC(=N)N)NC(=O)[C@@H](CCCNC(=N)N)NC(=O)[C@H](CCCNC(=N)N)NC(=O)[C@H](Cc2ccc3ccccc3c2)NC(=O)[C@@H](Cc2ccccc2)NC1=O)C(N)=O)[C@@H](C)O)[C@@H](C)CC)C(C)(C)C` gave a relative potency of ~4 fold (Protein phosphatase 3 catalytic subunit alpha, with calcineurin B (PPP3CA, Homo sapiens, UniProt Q08209); fluorescence polarisation competition; baseline: reference peptide).
With `CN(C)CCCSC(=S)N1CCN(C(=O)/C=C/c2coc3ccccc3c2=O)CC1` the MST response was 842 a.u. (Nucleoprotein (N, Tomato spotted wilt virus, UniProt P25999, R94A); binding, microscale thermophoresis; 0.2441 µM; dose series).
For `CCCC[C@H]1CNCCN1C[C@@H]1CCCN1C[C@H](CC1CCCCC1)N1CCN(CCCC2CCCC2)[C@H]([C@H](C)CC)C1`, the remaining binding was 97.8 ± 7.32% (Oprm1; radioligand binding; rat brain membranes; 500 nM, pH 7.5, 25 °C, together with: 0.87 nM [3H]DAMGO).
`CC(=O)N[C@@H](CCC(N)=O)C(=O)N[C@@H](CC1CCCCC1)C(=O)N[C@@H](CNC(=O)CCl)C(=O)N[C@@H](CC(C)C)C(=O)N[C@@H](Cc1ccccc1)C(=O)O` has a ΔG of -8.9 kcal/mol (Beta sliding clamp (Escherichia coli, UniProt P0A988); binding, isothermal titration calorimetry; pH 7.4, 37 °C).
`C[C@@H](O)[C@@H]1CN([C@@H](CC2CCCCC2)CN2CCC[C@H]2CN2CCNC[C@@H]2CO)CCN1CCCC1CCCC1` gave a remaining binding of 109 ± 6.97% (Oprm1; radioligand binding; rat brain membranes; 500 nM, pH 7.5, 25 °C, together with: 0.87 nM [3H]DAMGO).
`CCNC(=S)NN=Cc1c2ccccc2cc2ccccc12.Cc1ccc(C(C)C)cc1.[Cl-].[Cl-].[Ru+2]` has a ΔG° of -6.88 kcal/mol (Albumin (ALB, Homo sapiens, UniProt P02768); binding, fluorescence titration; human serum albumin; 301 K).
For `C=CC(=O)Nc1cc(-c2ccc(C(=O)N3CCCC(O)(CC)C3)cc2)ccc1F` (stereo not shown), the adducted protein was 26% and 20% (DNA dC->dU-editing enzyme APOBEC-3B, C-terminal domain (Homo sapiens, UniProt Q9UH17); covalent adduct, intact protein MS; 1 h, 10-fold excess, 250 µM).
`N=C(N)NCc1cn([C@@H]2[C@@H](OCCCl)O[C@H](CO)[C@@H](O)[C@@H]2O)nn1` gave a binding stoichiometry of 1.09 and 1.13 and 1.1 (C-type lectin domain family 4 member M, extracellular domain (CLEC4M, Homo sapiens, UniProt Q9H2X3); isothermal titration calorimetry; concentration not given).
With `CC[C@H](C)[C@H](NC(=O)[C@H](CCCNC(=N)N)NC(=O)[C@H](CCCNC(=N)N)NC(=O)[C@H](CC(C)C)NC(=O)[C@H](Cc1ccccc1)NC(=O)CNC(=O)CNC(=O)[C@@H](N)Cc1ccc(O)cc1)C(=O)N[C@@H](CCCNC(=N)N)C(=O)N1CCC[C@H]1C(=O)N[C@@H](CCCCN)C(=O)N[C@@H](CC(C)C)C(=O)N[C@@H](CCCCN)C(=O)O` the Emax was 11.1% (GPR139 (Homo sapiens, UniProt Q6DWJ6); Gαz activation, agonist, BRET; HEK293T/17; 40 µM).
For `CCCCCCCCCC(=O)NC1CCSC1=O` (stereo not shown), the Emax was 113% (sdiA).
`CN(C)[C@H]1C[C@@]23CC[C@@]4(O2)C(=CC[C@]2(C)[C@@H](c5ccc6ccncc6c5)CC[C@H]24)C=C3[C@@H](O)[C@@H]1O` gave an inhibition of -5.3% (CAMK2D (Homo sapiens, UniProt Q13557); ATP probe labelling, inhibitor, KiNativ profiling; 1 µM).
`O=C(Cc1ccc(Br)cc1)N[C@H]1CCOC1=O` has an agonist activity of 2% (lasR; reporter gene, agonist; Escherichia coli JLD271; 10 µM, pSC11 and pJN105L plasmids; baseline: OdDHL at same concentration).
`CC(C)[C@H]1NC(=O)C[C@H]2/C=C/CCSSC[C@@H](NC1=O)C(=O)N[C@H](Cc1cccc3ccccc13)C(=O)NCC(=O)O2` has an inhibition of -8.7% (MAP4K2 (Homo sapiens, UniProt Q12851); enzyme activity, inhibitor; 10 µM).
`O=S(=O)(F)c1cccc2c1OCC2` has a remaining activity of 116% (Uncharacterized hydrolase SAUSA300_2518; enzyme activity, inhibitor, fluorogenic substrate; 1 µM).
For `COc1ccccc1-c1n[nH]c2nc(N[C@H]3CC[C@H](NS(=O)(=O)CC(C)C)CC3)ncc12`, the remaining binding was 6.33% (cyclin 9 (Leishmania donovani, UniProt A0A2D1QVA3); bead pull-down competition; Leishmania donovani extract; 10 µM; baseline: vehicle).
With `CS(C)(=O)=Nc1ccc(-c2ccc(-c3nc4cc(O[C@@H]5CO[C@H]6[C@@H]5OC[C@H]6O)[nH]c4cc3F)cc2)cc1` the inhibition was -3% (NEK7 (Homo sapiens, UniProt Q8TDX7); enzyme activity, inhibitor; 10 µM).
For `O=C(NCc1cc(Br)cc(Br)c1OC(=O)c1ccccc1[N+](=O)[O-])c1ccccc1Cl`, the agonist activity was 105% (lasR; reporter gene, agonist; Escherichia coli JLD271; 10 µM, pSC11 and pJN105L plasmids; baseline: OdDHL at same concentration).
`COCC1CCCCN1C(=O)n1cc(C(O)(c2ccccc2)c2ccccc2)nn1` (stereo not shown): “SILAC activity ratio” 1.23 and 1.4 and 1.28 and 1.35 (Dipeptidyl peptidase 2 (Dpp7, Mus musculus, UniProt Q9ET22); probe labelling, inhibitor, competitive ABPP-SILAC, measured: Dpp7; mouse T cells; concentration not given, 4 h, single peptide; baseline: treated over DMSO cells, lower = stronger inhibition).
With `CCn1nc(Cl)c2c1-c1cnc(N)c(c1)O[C@H](C)c1cc(F)ccc1-c1nn(C)cc1C2` the selectivity ratio was 180 fold (EPHA4 (Homo sapiens, UniProt P54764); kinase activity, inhibitor; baseline: IC50 EPHA4 over IC50 ALK).
`O=C(Nc1ccncc1)c1ccccc1OS(=O)(=O)F` has a remaining activity of 94.6% and 91.4% and 94.4% (Uncharacterized hydrolase SAUSA300_2518; enzyme activity, inhibitor, fluorogenic substrate; 0.01 µM).
The ΔTm of `Nc1ccc(N=Nc2ccccc2)c2ccccc12` is reported as 14.6 °C (Tumor susceptibility gene 101 protein (Homo sapiens, UniProt Q99816); thermal stability; 800 µM).
`CC(C)CC(O)(CC(C)C)c1cn(C(=O)N2CCCC2)nn1` — result for “SILAC activity ratio”: 1.1 and 1.28 and 1.06 and 1.15 (Cytosolic acyl coenzyme A thioester hydrolase (Acot7, Mus musculus, UniProt Q91V12); probe labelling, inhibitor, competitive ABPP-SILAC, measured: Acot7; mouse T cells; concentration not given, 4 h, single peptide; baseline: treated over DMSO cells, lower = stronger inhibition).
Under “inhibition of specific binding”, `CCc1nnc(-c2c(OC)cc(-c3cnc4cc(-c5cnn(C)c5)ccn34)cc2OC)o1` is recorded as -48% (PTGS1 (Homo sapiens, UniProt P23219); 10 µM).
`CCCCCCCCCC(=O)CC(=O)Nc1ccccc1` gave an agonist activity of 8% (lasR; reporter gene, agonist; Pseudomonas aeruginosa PAO-JP2; 100 µM, plasI-LVAgfp reporter; baseline: OdDHL at same concentration).

A few entries again:
`O=C(Cc1ccc(Br)cc1)N[C@H]1CCOC1=O` has an agonist activity of 2% (lasR; reporter gene, agonist; Escherichia coli JLD271; 10 µM, pSC11 and pJN105L plasmids; baseline: OdDHL at same concentration).
`CC(C)[C@H]1NC(=O)C[C@H]2/C=C/CCSSC[C@@H](NC1=O)C(=O)N[C@H](Cc1cccc3ccccc13)C(=O)NCC(=O)O2` has an inhibition of -8.7% (MAP4K2 (Homo sapiens, UniProt Q12851); enzyme activity, inhibitor; 10 µM).
`O=S(=O)(F)c1cccc2c1OCC2` has a remaining activity of 116% (Uncharacterized hydrolase SAUSA300_2518; enzyme activity, inhibitor, fluorogenic substrate; 1 µM).
